# Published values collected from several papers.
# Protocols differ between the studies behind these lines. ± marks the error that the study gave.
SMILES,cell line,observed,method,time,IC50
CCCCn1cc(C(=O)O)c(=O)c2cc(F)c3[nH]nnc3c21,T47D,cell growth,SRB,72 h,18.5 ± 1.64 µg/mL
CC1(C)CCC(CN2CCN(c3ccc(C(=O)NS(=O)(=O)c4ccc(NCC5COCCO5)c([N+](=O)[O-])c4)c(N4CCCOc5nc6[nH]ccc6cc54)c3)CC2)=C(c2ccc(Cl)cc2)C1 (stereo not drawn),human platelets,platelet viability,MTS,72 h,6.36 µM
CCCCn1cc(C(=O)O)c(=O)c2cc(F)c3c(nnn3-c3cccc(OC)c3)c21,T47D,cell growth,SRB,72 h,61.2 ± 6.21 µg/mL
COc1cc2ncnc(Nc3ccc(F)c(Cl)c3)c2cc1NC(=O)/C=C/CN(C)C,"MDA-MB-435S, NIH3T3, SW-620",cytotoxicity,sulforhodamine B,72 h,0.7 to 2.2 µM
[N-]=[N+]=NC1COC(=O)N1/N=C/c1ccc([N+](=O)[O-])o1 (stereo not drawn),HepaRG,cell growth or viability,MTT,24 h,> 100 µM
O=C(Cc1ccccc1)NC(=S)n1c(-c2ccccc2)nc2ccccc21,normal human PBMC,cytotoxicity,MTT,48 h,187 ± 19.4 µM
CCCCn1cc(C(=O)O)c(=O)c2cc(F)c(Nc3cccc(OC)c3)c([N+](=O)[O-])c21,K562,cell growth,SRB,72 h,5.9 ± 0.57 µg/mL
O=C1OCC(NCc2ccccc2)N1/N=C/c1ccc([N+](=O)[O-])o1 (stereo not drawn),HepaRG,cell growth or viability,MTT,24 h,> 100 µM
CCCCn1cc(C(=O)O)c(=O)c2cc(F)c3c(nnn3-c3ccc(OC)cc3)c21,T47D,cell growth,SRB,72 h,55 ± 1.66 µg/mL
O=C1OCC(O)N1/N=C/c1ccc([N+](=O)[O-])o1 (stereo not drawn),HepaRG,cell growth or viability,MTT,24 h,> 100 µM
CCCCn1cc(C(=O)O)c(=O)c2cc(F)c(Nc3cc(OC)c(OC)c(OC)c3)c([N+](=O)[O-])c21,PANC-1,cell growth,sulforhodamine B,72 h,48.6 ± 2.87 µg/mL
CCCCn1cc(C(=O)O)c(=O)c2cc(F)c(N)c([N+](=O)[O-])c21,T47D,cell growth,SRB,72 h,0.26 ± 0.02 µg/mL

# Excerpt of the above:
SMILES,cell line,observed,method,time,IC50
COc1cc2ncnc(Nc3ccc(F)c(Cl)c3)c2cc1NC(=O)/C=C/CN(C)C,"MDA-MB-435S, NIH3T3, SW-620",cytotoxicity,sulforhodamine B,72 h,0.7 to 2.2 µM
